# Experimental data collected from several papers.
# Lines come from different studies, so protocols differ. ± gives the spread as reported.
# ALDH2: Aldehyde dehydrogenase, mitochondrial (ALDH2, Homo sapiens, UniProt P05091)
# Chain of UniProt P05091 (whole entry, looked up): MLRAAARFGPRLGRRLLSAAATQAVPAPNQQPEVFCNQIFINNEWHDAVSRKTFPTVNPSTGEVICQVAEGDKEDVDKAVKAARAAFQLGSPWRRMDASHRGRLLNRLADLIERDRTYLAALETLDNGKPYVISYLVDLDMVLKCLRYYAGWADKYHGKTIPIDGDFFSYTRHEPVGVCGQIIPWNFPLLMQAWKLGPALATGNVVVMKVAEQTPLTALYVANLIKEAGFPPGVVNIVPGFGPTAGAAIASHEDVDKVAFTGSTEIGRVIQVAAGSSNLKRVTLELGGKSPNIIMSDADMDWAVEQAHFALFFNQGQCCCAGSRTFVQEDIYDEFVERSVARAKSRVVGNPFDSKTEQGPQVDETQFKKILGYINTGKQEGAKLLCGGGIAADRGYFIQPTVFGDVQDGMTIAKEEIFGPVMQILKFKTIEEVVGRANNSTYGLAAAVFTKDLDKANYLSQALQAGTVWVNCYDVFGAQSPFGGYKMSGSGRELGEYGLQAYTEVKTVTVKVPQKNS
# Histone acetyltransferase RTT109 with Vps75: Histone acetyltransferase RTT109, with Vps75 (Saccharomyces cerevisiae, UniProt Q07794)
# Chain of UniProt Q07794 (whole entry, looked up): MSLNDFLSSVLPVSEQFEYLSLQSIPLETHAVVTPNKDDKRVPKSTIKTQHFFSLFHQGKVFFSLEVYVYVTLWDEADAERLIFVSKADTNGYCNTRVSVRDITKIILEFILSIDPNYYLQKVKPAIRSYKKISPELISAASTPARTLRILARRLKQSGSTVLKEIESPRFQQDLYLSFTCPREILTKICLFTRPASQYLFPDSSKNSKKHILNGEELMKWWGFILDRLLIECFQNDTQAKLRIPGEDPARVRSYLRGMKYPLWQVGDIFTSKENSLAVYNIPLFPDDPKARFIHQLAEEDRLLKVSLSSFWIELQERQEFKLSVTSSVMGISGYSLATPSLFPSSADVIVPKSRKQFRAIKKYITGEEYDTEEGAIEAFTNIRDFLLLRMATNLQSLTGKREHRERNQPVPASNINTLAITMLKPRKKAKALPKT
# uncharacterized protein: uncharacterized protein (Saccharopolyspora erythraea, UniProt A4F7P9)
# Chain of UniProt P62942 (whole entry, unmodified, looked up): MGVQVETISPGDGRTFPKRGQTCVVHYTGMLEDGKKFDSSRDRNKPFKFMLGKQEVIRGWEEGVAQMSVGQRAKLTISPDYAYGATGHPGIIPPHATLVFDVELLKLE
# Chain of UniProt P51575 (whole entry, unmodified, looked up): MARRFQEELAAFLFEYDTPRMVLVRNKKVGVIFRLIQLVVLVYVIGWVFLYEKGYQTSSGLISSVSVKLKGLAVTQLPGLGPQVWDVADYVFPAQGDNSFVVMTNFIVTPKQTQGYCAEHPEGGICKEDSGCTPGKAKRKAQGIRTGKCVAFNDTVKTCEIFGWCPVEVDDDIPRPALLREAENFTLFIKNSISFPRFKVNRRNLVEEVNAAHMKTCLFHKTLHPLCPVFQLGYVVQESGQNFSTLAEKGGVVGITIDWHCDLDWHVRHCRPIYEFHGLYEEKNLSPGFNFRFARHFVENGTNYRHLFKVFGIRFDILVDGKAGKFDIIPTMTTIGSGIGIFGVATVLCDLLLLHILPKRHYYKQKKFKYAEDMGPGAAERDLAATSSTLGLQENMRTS
# Chain of UniProt P0AF12 (whole entry, looked up): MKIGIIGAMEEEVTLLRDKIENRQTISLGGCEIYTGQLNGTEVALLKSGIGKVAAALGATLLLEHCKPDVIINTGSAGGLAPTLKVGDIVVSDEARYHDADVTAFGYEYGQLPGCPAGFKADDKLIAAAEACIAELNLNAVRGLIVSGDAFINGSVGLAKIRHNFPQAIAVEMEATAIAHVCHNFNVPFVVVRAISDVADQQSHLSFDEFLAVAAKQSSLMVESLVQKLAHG
# Chain of UniProt Q8TDX7 (whole entry, looked up): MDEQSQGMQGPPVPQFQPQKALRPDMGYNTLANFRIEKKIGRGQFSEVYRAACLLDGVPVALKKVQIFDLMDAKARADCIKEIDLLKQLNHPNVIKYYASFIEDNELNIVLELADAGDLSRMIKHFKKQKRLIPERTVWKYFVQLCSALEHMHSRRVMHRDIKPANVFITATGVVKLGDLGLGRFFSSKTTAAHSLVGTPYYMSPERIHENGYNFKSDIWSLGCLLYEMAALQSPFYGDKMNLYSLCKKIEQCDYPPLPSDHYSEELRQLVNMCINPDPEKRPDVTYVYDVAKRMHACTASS
# Chain of UniProt P53350 (whole entry, looked up): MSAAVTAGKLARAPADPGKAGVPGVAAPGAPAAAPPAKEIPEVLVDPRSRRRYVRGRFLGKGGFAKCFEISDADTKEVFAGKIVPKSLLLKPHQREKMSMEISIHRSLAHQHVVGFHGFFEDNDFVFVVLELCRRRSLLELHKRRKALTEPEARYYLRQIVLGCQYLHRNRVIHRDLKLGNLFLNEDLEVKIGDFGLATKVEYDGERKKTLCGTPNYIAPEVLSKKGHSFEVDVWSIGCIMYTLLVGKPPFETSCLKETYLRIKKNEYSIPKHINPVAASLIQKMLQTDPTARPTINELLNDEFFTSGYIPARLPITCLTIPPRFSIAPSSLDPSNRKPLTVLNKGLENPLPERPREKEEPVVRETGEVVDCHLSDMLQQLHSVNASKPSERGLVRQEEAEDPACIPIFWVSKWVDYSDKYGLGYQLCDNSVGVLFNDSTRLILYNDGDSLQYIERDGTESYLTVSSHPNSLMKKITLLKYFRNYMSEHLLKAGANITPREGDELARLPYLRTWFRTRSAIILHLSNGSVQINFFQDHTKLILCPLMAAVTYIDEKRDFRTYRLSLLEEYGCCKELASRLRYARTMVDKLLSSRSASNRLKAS
# Chain of UniProt P18825 (whole entry, looked up): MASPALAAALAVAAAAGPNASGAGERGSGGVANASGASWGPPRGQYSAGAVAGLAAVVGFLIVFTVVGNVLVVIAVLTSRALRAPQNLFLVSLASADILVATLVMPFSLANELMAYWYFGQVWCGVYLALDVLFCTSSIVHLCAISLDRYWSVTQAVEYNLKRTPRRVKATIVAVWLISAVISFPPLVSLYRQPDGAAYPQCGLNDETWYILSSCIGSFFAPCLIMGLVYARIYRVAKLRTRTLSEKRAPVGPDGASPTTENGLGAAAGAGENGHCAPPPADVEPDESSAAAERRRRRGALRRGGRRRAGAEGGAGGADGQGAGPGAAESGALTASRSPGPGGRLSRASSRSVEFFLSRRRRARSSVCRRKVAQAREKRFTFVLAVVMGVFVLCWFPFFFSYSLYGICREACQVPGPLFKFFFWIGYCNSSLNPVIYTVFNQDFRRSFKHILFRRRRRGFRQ
# Chain of UniProt Q8BHY3 (whole entry, unmodified, looked up): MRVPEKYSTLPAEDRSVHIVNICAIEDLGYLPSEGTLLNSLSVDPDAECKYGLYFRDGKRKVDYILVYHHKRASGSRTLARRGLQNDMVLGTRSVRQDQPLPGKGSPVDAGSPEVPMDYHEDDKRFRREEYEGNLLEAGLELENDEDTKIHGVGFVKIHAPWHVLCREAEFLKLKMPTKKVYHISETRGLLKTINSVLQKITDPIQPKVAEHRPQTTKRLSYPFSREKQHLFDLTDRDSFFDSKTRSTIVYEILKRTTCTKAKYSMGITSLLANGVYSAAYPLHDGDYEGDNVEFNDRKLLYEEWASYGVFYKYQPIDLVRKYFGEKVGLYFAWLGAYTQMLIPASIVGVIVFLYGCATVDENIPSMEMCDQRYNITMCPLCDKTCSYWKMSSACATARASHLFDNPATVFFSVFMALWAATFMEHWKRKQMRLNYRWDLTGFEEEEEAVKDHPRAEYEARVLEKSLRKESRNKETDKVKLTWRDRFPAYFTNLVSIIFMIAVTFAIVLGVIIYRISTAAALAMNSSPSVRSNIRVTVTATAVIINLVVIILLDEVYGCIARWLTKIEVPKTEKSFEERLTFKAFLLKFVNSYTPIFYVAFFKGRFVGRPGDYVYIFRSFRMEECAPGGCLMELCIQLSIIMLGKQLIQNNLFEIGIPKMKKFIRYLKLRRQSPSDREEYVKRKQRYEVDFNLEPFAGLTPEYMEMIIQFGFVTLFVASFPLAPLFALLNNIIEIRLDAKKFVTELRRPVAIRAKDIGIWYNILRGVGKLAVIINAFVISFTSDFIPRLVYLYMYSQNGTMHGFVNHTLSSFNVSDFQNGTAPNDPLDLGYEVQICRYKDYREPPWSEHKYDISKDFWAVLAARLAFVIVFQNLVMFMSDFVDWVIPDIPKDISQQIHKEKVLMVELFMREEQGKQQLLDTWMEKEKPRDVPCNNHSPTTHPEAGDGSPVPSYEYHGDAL
# Chain of UniProt Q96SW2 (whole entry, looked up): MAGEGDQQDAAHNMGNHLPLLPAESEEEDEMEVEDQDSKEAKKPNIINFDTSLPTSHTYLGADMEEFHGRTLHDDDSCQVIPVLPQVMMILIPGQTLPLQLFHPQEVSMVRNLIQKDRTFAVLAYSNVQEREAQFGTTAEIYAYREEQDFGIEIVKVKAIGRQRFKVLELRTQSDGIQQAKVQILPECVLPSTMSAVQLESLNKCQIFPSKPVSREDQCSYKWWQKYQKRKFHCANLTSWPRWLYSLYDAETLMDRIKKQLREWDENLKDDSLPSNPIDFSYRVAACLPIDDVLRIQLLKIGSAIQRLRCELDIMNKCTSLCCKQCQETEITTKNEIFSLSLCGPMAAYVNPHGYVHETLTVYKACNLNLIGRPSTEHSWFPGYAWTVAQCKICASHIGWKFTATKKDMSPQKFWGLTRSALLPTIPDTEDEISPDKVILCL
# Chain of UniProt P61823 (whole entry, looked up): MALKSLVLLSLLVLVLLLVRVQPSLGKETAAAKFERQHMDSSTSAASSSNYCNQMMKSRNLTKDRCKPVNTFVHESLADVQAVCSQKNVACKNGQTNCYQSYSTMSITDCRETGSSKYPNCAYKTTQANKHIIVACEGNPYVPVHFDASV
SMILES,target,test,test system,conditions,endpoint,value
Nc1ccn([C@@H]2O[C@H](COP(=O)(O)OP(=O)(O)O)[C@@H](O)[C@H]2O)c(=O)n1,"Ribonuclease pancreatic (RNASE1, Bos taurus, UniProt P61823)","native MS, single-point",,,Kd,3.9 ± 0.2 µM
COc1cc(C)[nH]c(=O)c1CN1CCc2c(Cl)cc([C@H](OC)C3COC3)c(Cl)c2C1=O,"Histone-lysine N-methyltransferase EZH2 (EZH2, Homo sapiens, UniProt Q15910)","inhibitor, TR-FRET",,PRC2 with activator peptide,Ki,1.9e-05 µM
CNC(=O)[C@@]12C[C@@H]1[C@@H](n1cnc3c(NC)nc(C#Cc4cnccn4)nc31)[C@H](O)[C@@H]2O,"Alpha-2C adrenergic receptor (ADRA2C, Homo sapiens, UniProt P18825)",radioligand binding (PDSP),,,Ki,1 to 10 µM
O=C(CCCCCCNC(=O)c1cnc(N(c2ccccc2)c2ccccc2Cl)nc1)NO,ALDH2,"inhibitor, competition pulldown",SW620 and MV4-11 lysate,1 h,Kd,1.53 µM
O=C(Oc1ccc(NS(=O)(=O)c2ccccc2)cc1Br)c1ccccc1,Histone acetyltransferase RTT109 with Vps75,"enzyme activity, inhibitor, HTS, CPM-based, dose response",,,IC50,> 125 µM
Cn1cc(-c2ccc(S(=O)(=O)n3ccc(/C=C/C(=O)Nc4ccccc4N)c3)cc2)cn1,ALDH2,"inhibitor, competition pulldown",SW620 and MV4-11 lysate,1 h,Kd,> 30.2 µM
NC1CC1(F)c1ccc(Cl)cc1 (centres unmarked),tyramine oxidase (Arthrobacter sp.),"enzyme activity, competitive inhibitor, Lineweaver-Burk plot",,,Ki,0.91 ± 0.01 µM
C[C@@H]1O[C@H](CNS(=O)(=O)c2ccc(CCN=[N+]=[N-])s2)[C@@H](O)[C@H](O)[C@@H]1O,"fucose-binding lectin LecB (Pseudomonas aeruginosa, UniProt A0A0H2ZE85)",,,,Ki,0.36 ± 0.04 µM
N=C(N/N=C/c1ccc2c(c1)OCO2)SC1CC(=O)N(c2ccc(Br)cc2)C1=O (centres unmarked),Histone acetyltransferase RTT109 with Vps75,"enzyme activity, inhibitor, HTS, CPM-based, dose response",,,IC50,> 125 µM
CCCN1CCN(c2ccc(-c3cncc(Cl)c3N3CCC4(CCNC4=O)CC3)cc2)CC1,MED12 human,SILAC competition,LS174T-L5 lysate,,Kd,0.007 µM
O=S(=O)(c1ccc2nsnc2c1)N1CCOCC1,Histone acetyltransferase RTT109 with Vps75,"enzyme activity, inhibitor, HTS, CPM-based, dose response",,,IC50,> 125 µM
C=CC(=O)N(C)CCCCC(=O)N1CCN(c2nc(-c3cnc(N)nc3C(F)F)nc(N3CCOCC3)n2)CC1,"Phosphatidylinositol 4,5-bisphosphate 3-kinase catalytic subunit alpha isoform (PIK3CA, Homo sapiens, UniProt P42336)",,,,Ki,0.00626 µM
NCc1cc2c(cc1F)C(=O)N(C1CCC(=O)NC1=O)C2 (centres unmarked),"NEK7/CRBN (Homo sapiens, UniProt Q8TDX7+Q96SW2)","degrader, Western blot",Hep3B,24 h,DC50,0.009 µM
Nc1cc(F)ccc1NC(=O)c1ccc(CNC(=O)/C=C/c2cccnc2)cc1,ALDH2,"inhibitor, competition pulldown",SW620 and MV4-11 lysate,1 h,Kd,> 30.2 µM
Cc1ccc(NS(=O)(=O)c2ccc(C(C)(C)C)cc2)cc1Cl,Histone acetyltransferase RTT109 with Vps75,"enzyme activity, inhibitor, HTS, CPM-based, dose response",,,IC50,> 125 µM
CC[C@H](C)[C@H](NC(=O)[C@H](Cc1ccc(OP(=O)(O)O)cc1)NC(=O)[C@H](CC(N)=O)NC(=O)[C@H](CC(C)C)NC(=O)[C@@H](N)CO)C(=O)N[C@@H](CC(=O)O)C(=O)N[C@@H](CC(C)C)C(=O)N[C@@H](CC(=O)O)C(=O)N[C@@H](CC(C)C)C(=O)N[C@H](C(=O)N[C@@H](CCCCN)C(=O)O)C(C)C,"Tyrosine-protein phosphatase non-receptor type 11 (PTPN11, Homo sapiens, UniProt Q06124, R111D/S502P)","enzyme activity, activator",,"pH 7.0, 2% DMSO, added: DiFMUP 100 µM, phosphopeptide",EC50,3 ± 0.4 µM
CC[C@H]1OC(=O)[C@H](C)[C@@H](O[C@H]2C[C@@](C)(OC)[C@@H](O)[C@H](C)O2)[C@H](C)[C@@H](O[C@@H]2O[C@H](C)C[C@H](N(C)C)[C@H]2O)[C@](C)(OC)C[C@@H](C)C(=O)[C@H](C)[C@@H](O)[C@]1(C)O,uncharacterized protein,inhibitor,,"pH 7.6, 20 °C, added: p-nitrophenyl-β-D-glucopyranoside",Ki,164 ± 45 µM
CCC(C)(C)C(=O)C(=O)N1CCC[C@H]1C(=O)OCCCc1cccnc1,"Peptidyl-prolyl cis-trans isomerase FKBP1A (FKBP1A, Homo sapiens, UniProt P62942)","enzyme activity, inhibitor, PPIase",,10 °C,Ki,3.1 µM
CCCCCCCCSc1ccc(C(=O)Nc2ccc(C)cc2C(=O)O)cc1,"Serine/threonine-protein kinase PLK1 (PLK1, Homo sapiens, UniProt P53350)","degrader, western blot",PC-3,23 h,DC50,13 ± 1.7 µM
N[C@@H]1C[C@@]1(F)c1ccccc1,tyramine oxidase (Arthrobacter sp.),"enzyme activity, competitive inhibitor, Lineweaver-Burk plot",,,Ki,0.83 ± 0.01 µM
O=C(NC1CS(=O)(=O)c2ccccc21)c1ccc2[nH]c3c(c2c1)CCCC3 (centres unmarked),Histone acetyltransferase RTT109 with Vps75,"enzyme activity, inhibitor, HTS, CPM-based, dose response",,,IC50,> 125 µM
CC[C@H](C(=O)N1CCCC[C@H]1C(=O)O[C@H](CCc1ccc(OC)c(OC)c1)c1ccccc1OCC(=O)NCCCCCCC(=O)N[C@H](C(=O)N1C[C@H](O)C[C@H]1C(=O)N[C@@H](C)c1ccc(-c2scnc2C)cc1)C(C)(C)C)c1cc(OC)c(OC)c(OC)c1,"Peptidyl-prolyl cis-trans isomerase FKBP1A (FKBP1A, Homo sapiens, UniProt P62942, F37V)",luminescence,HEK293T stably expressing target,6 h,DC50,~0.1 µM
C#CCCCCC(F)=C1O[C@H](CO)[C@@H](O)[C@H](O)[C@H]1O,uncharacterized protein,inhibitor,,"pH 7.6, 20 °C, added: p-nitrophenyl-β-D-glucopyranoside",Ki,148 ± 16 µM
O=S1(=O)C=C(N2CCCCC2)c2ccccc21,Histone acetyltransferase RTT109 with Vps75,"enzyme activity, inhibitor, HTS, CPM-based, dose response",,,IC50,> 125 µM
O=C(CCCCCCC(=O)Nc1ccccc1)NO,ALDH2,"inhibitor, competition pulldown",SW620 and MV4-11 lysate,1 h,Kd,0.541 µM
Nc1ncnc2c1ncn2[C@@H]1O[C@H](COP(=O)(O)OP(=O)(O)OP(=O)(O)O)[C@@H](O)[C@H]1O,"P2X purinoceptor 1 (P2RX1, Homo sapiens, UniProt P51575, A137L/K136E/K138D/K140L/R139M)","ion current, agonist, two-electrode voltage clamp",,5,EC50,9.06 µM
O=C(Nc1ccc([N+](=O)[O-])cc1Cl)c1cc(Cl)ccc1O,"Anoctamin-1 (Ano1, Mus musculus, UniProt Q8BHY3, R605A)","chloride current, whole-cell patch clamp",HEK-293T TMEM16F knockout,,EC50,5.66 ± 0.91 µM
OC[C@H]1OC(O)[C@H](O)[C@@H](O)[C@@H]1O (some centres unmarked),"Hexokinase-3 (HK3, Homo sapiens, UniProt P52790, E254A)",substrate inhibition,,"mutant E254A, complete substrate inhibition model, added: ATP 20 mM",Ki,12000 ± 3000 µM
O=S(=O)(c1ccc(Br)c2nsnc12)N1CCC(Cc2ccccc2)CC1,Histone acetyltransferase RTT109 with Vps75,"enzyme activity, inhibitor, HTS, CPM-based, dose response",,,IC50,> 125 µM
COc1cc(Nc2ncc3c(n2)-c2ccc(Cl)cc2C(c2c(F)cccc2OC)=NC3)ccc1C(=O)NCCOCCOCCNC(=O)COc1cccc2c1C(=O)N(C1CCC(=O)NC1=O)C2=O (centres unmarked),"Focal adhesion kinase 1 (PTK2, Homo sapiens, UniProt Q05397)","binding, kinobead competition",MV4-11 cell lysate,,EC50,> 30 µM
S=c1[nH]nc(-c2ccccc2)o1,Histone acetyltransferase RTT109 with Vps75,"enzyme activity, inhibitor, HTS, CPM-based, dose response",,,IC50,66 ± 4 µM
CCCCCCNC(=O)n1cc(F)c(=O)[nH]c1=O,"5'-methylthioadenosine/S-adenosylhomocysteine nucleosidase (mtnN, Escherichia coli, UniProt P0AF12)","enzyme activity, non-competitive inhibitor",,added: SAH substrate,Ki,172 µM

# Some of these lines once more:
SMILES,target,test,test system,conditions,endpoint,value
O=C(Nc1ccc([N+](=O)[O-])cc1Cl)c1cc(Cl)ccc1O,"Anoctamin-1 (Ano1, Mus musculus, UniProt Q8BHY3, R605A)","chloride current, whole-cell patch clamp",HEK-293T TMEM16F knockout,,EC50,5.66 ± 0.91 µM
OC[C@H]1OC(O)[C@H](O)[C@@H](O)[C@@H]1O (some centres unmarked),"Hexokinase-3 (HK3, Homo sapiens, UniProt P52790, E254A)",substrate inhibition,,"mutant E254A, complete substrate inhibition model, added: ATP 20 mM",Ki,12000 ± 3000 µM
O=S(=O)(c1ccc(Br)c2nsnc12)N1CCC(Cc2ccccc2)CC1,Histone acetyltransferase RTT109 with Vps75,"enzyme activity, inhibitor, HTS, CPM-based, dose response",,,IC50,> 125 µM
